# Experimental data collected from several papers.
# Each line is one published result; not all experiments were run side by side. ± gives the spread as reported.
SMILES,tested on,test,test system,conditions,how to read,measurement,value
CCN(CCO)CCCC(C)Nc1ccnc2cc(Cl)ccc12 (centres unmarked),,,newly diagnosed glioblastoma patients,"oral, 200 mg/dose, grade 2, added: radiotherapy and temozolomide",,white cell decrease patients,33%
CC1(C)[C@H](C(=O)OCc2cccc(Oc3ccccc3)c2)[C@@H]1C=C(Cl)Cl,,refers to: CYP3A4,"human, age 5 years, recombinant human CYP3A4",0.1 µM,,enzyme contribution to clearance,0.75%
O=S(=O)(Nc1ccccc1)c1ccc(NC(=S)Nc2ccccc2)cc1,,refers to: AST,"male mouse, blood","oral, 20 mg/kg daily, 14 days",,serum enzyme activity,296 U/L
C[C@]1(CO)Cc2ncn(-c3ccc(C#N)c(Cl)c3)c2C(=O)O1,,,"human, plasma","3 mg, first dose fasted",,tmax,30 min
CC(C)C[C@@H]1NC(=O)[C@H](CC(N)=O)NC(=O)[C@H](CCCNC(=N)N)NC(=O)[C@H]([C@@H](C)O)NC(=O)[C@@H]2CSSC[C@@H]3NC(=O)[C@H]([C@@H](C)O)NC(=O)CNC(=O)CNC(=O)[C@H](C(C)C)NC(=O)[C@@H]4CSSC[C@H](NC(=O)[C@H](CCCCN)NC(=O)[C@H](CSSC[C@H](NC(=O)[C@H](C(C)C)NC(=O)[C@@H]5CCCN5C(=O)[C@H](CC(C)C)NC1=O)C(=O)NCC(=O)N[C@@H](CCC(=O)O)C(=O)N[C@@H]([C@@H](C)O)C(=O)N4)NC(=O)CNC(=O)[C@@H]1CCCN1C(=O)[C@H]([C@@H](C)O)NC(=O)[C@H](CC(N)=O)NC3=O)C(=O)N[C@@H](CO)C(=O)N[C@@H](Cc1c[nH]c3ccccc13)C(=O)N1CCC[C@H]1C(=O)N[C@@H](C(C)C)C(=O)N2,,HPLC,ammonium bicarbonate 0.1 M,"180 µM, 7 days, pH 9.0, 37 °C, deamidation stability",,remaining peptide,96.9 ± 0.7%
O=C(Cc1ccc(Cl)c(Cl)c1)N1CCCCC1CN1CCCC1 (centres unmarked),Plasmodium falciparum,,GB4,,,IC50,1.58 µM
Clc1ccc(-c2ccccc2)cc1,,,"Sprague-Dawley rats, female, serum","inhalation, 23 µg/rat, 0 h after exposure",,chloride,77 ± 14 mmol/L
Clc1ccc(Cl)c(-c2cc(Cl)ccc2Cl)c1,,,Sprague Dawley rat,"intraperitoneal, 1 mg/kg",,relative liver weight,0.0416 g/g body weight
CC(C)NCCCC[C@@H]1NC(=O)[C@H](Cc2ccc(O)cc2)NC(=O)[C@H](Cc2ccccc2)NC(=O)CC[C@H](C(=O)N[C@@H](CCCCNC(C)C)C(=O)N[C@@H](CCCCNC(=O)[C@H](CCC(=O)O)NC(=O)[C@H](CCC(=O)O)NC(=O)[C@H](CCC(=O)O)NC(=O)CN2CCN(CC(=O)O)CCN(CC(=O)O)CC2)C(N)=O)NC(=O)CNC(=O)[C@H](Cc2ccc3ccccc3c2)NC(=O)[C@@H](CCCNC(=N)N)NC1=O [fluorine-18 labelled],,,"rhesus macaque, urine",180 min post-injection,,parent fraction,57.6%
CO[C@H]1C[C@@H]2CC[C@@H](C)[C@@](O)(O2)C(=O)C(=O)N2CCCC[C@H]2C(=O)O[C@H]([C@H](C)C[C@@H]2CC[C@@H](OC(=O)NCCOCCOCCOCCOCCOCCOCCOCCOCCC(=O)N3CCc4cc(Cn5nc(-c6ccc7oc(N)nc7c6)c6c(N)ncnc65)ccc4C3)[C@H](OC)C2)C[C@@H](O)[C@H](C)/C=C(\C)[C@@H](O)[C@@H](OC)C(=O)[C@H](C)C[C@H](C)/C=C/C=C/C=C/1C,,,patients with advanced solid tumours,"intravenous, 16 mg weekly, any grade",,nausea incidence,75%
COc1cc2c(Oc3ccc4[nH]c(C)cc4c3F)ccnc2cc1OCC1(N)CC1,,,paediatric recurrent refractory sarcoma,8 mg,,Headache incidence,0%
N.N.O=C([O-])C1(C(=O)[O-])CCC1.[Pt+2],,refers to: unbound platinum,"human, plasma ultrafiltrate","intravenous, AUC 3, median, dose level -2",,Tmax,36 min
COc1cc2c(cc1OC)CN(CCc1ccc(NC(=O)c3cccc4c(=O)c5cccc(OC)c5[nH]c34)cc1)CC2,,,"CD-1 mouse, male, plasma","intraperitoneal, 30 mg/kg",,AUC(0-t),13400 ng·h/mL
CCCCCCCCCCCCCCCC(=O)N[C@@H](CCC(=O)NCCCC[C@H](NC(=O)[C@H](CC(=O)O)NC(=O)[C@H](CO)NC(=O)[C@@H](NC(=O)[C@H](Cc1ccccc1)NC(=O)[C@@H](NC(=O)CNC(=O)[C@H](CCC(N)=O)NC(=O)[C@H](CO)NC(=O)[C@@H](N)Cc1c[nH]cn1)[C@@H](C)O)[C@@H](C)O)C(=O)N[C@@H](CO)C(=O)N[C@@H](CCC(=O)O)C(=O)N[C@@H](Cc1ccc(O)cc1)C(=O)N[C@@H](CC(C)C)C(=O)N[C@@H](CC(=O)O)C(=O)N[C@@H](CO)C(=O)N[C@@H](CCC(=O)O)C(=O)N[C@@H](CCCNC(=N)N)C(=O)N[C@@H](C)C(=O)N[C@@H](CCCNC(=N)N)C(=O)N[C@@H](CC(=O)O)C(=O)N[C@@H](Cc1ccccc1)C(=O)N[C@H](C(=O)N[C@@H](C)C(=O)N[C@@H](Cc1c[nH]c2ccccc12)C(=O)N[C@@H](CC(C)C)C(=O)N[C@@H](CCC(=O)O)C(=O)N[C@@H](C)C(=O)NCC(=O)NCC(=O)O)C(C)C)C(=O)O,,refers to: Diarrhoea,humans CrCl 20 to 30 mL/min,"subcutaneous, 100 µg single dose",,treatment-related adverse events,0%
CC(=O)c1c(C)c2cnc(Nc3ccc(C4CCN(CCS(C)(=O)=O)CC4)cn3)nc2n(C2CCCC2)c1=O,,,"human patients, plasma","oral, 75 mg twice daily, day 1 single dose, added: fulvestrant",,elimination rate constant,4.17e-05 s⁻¹
NC(=O)[C@H]1CCN(c2ncnc(N)c2F)C[C@@H]1N1CCC[C@@H](Nc2cc(Cl)cc(C(F)(F)F)c2)C1=O,,,B-cell malignancy patients,"oral, 328 mg twice daily, dose",,grade ≥3 bilirubin increase,0%
CN1CC[C@@H](c2c(O)cc(O)c3c(=O)cc(-c4ccc(C(F)(F)F)cc4Cl)oc23)[C@@H]1CO,,refers to: rectal abscess,B-cell malignancies,"oral, 200 mg, grade 3 to 4, intermittent dosing",,patients with adverse event,0%
CC1(C)[C@@H](O[C@H]2O[C@H](C(=O)O)[C@@H](O)[C@H](O)[C@H]2O[C@@H]2O[C@H](C(=O)O)[C@@H](O)[C@H](O)[C@H]2O)CC[C@]2(C)[C@H]3C(=O)C=C4[C@@H]5C[C@@](C)(C(=O)O)CC[C@]5(C)CC[C@@]4(C)[C@]3(C)CC[C@@H]12,,,"Sprague Dawley rat, plasma","oral, 10 g lyophilized powder/kg, high dose",,Vz/F,0.37 ± 0.12 L/kg
CCOc1cc(Oc2ccc(C(F)(F)F)cc2Cl)ccc1[N+](=O)[O-],,,rat male,"3.25 mg/kg, 8 days",,final body weight,159 ± 3.8 g
O=C1Nc2cc3[nH]nc(-c4ccncc4)c3cc2CN1Cc1ccccc1,,CTCAE v4.03,advanced solid tumour patients,"intravenous, 4.8 mg/kg, schedules 1/2",,patients with increased GGT,0%
Cn1cncc1-c1c(F)cncc1NC(=O)c1c(N)nn2cc(F)cnc12,,,human patients,"oral, up to 40 mg once daily, 21 days",,platelet count decreased DLT,0%
CCCCC/C=C\C/C=C\CCCCCCCCC(CCCCCCCC/C=C\C/C=C\CCCCC)OC(=O)CCCN(C)C,,"refers to: IL-6, MCP-1, ALT, AST",BALB/c mice,"intravenous, 6 mg/kg siRNA, 6 h cytokines, 24 h ALT/AST, LNP formulation",,tolerability,not toxic
COc1ncccc1-c1cnn2ccc(N3CCN(C(=O)OC(C)C)CC3)nc12,,,"rat, CCI mechanical allodynia model, plasma","oral, 10 mg/kg, 240 min",,drug concentration,2100 nM
C[C@@H](NC(=O)N1C(=O)[C@H](Cc2ccnc(N)c2)[C@H]1C(=O)O)C1CCCCC1,,,healthy Chinese adults,"continuous intravenous infusion, 0.6 mg/kg/h, 5.0 days",,decreased WBC,25%
COc1cccc2c1CCCC2CCCN1CCN(C2CCCCC2)CC1 (centres unmarked),,,"CD-1 mouse, male, lung","intraperitoneal, 0.3 mg/kg",,elimination rate constant,6.13e-05 s⁻¹
O=C(O)CCCOc1ccc(F)cc1-c1cc(-c2ccccc2C(F)(F)F)n(-c2ccccc2)n1,,,"female Crl:CD(SD) rats, thymus","intravenous, 25 µg/kg, 1 d",,relative organ weight,0.25 ± 0.04 g%
O=[Se](=O)([O-])[O-].[Na+].[Na+],,,rat,"subcutaneous, 0.2 mg/kg",,apparent clearance (CL/F),11 mL/day/kg
c1ccc2c(c1)-c1ccc3ccc4cccc5cc-2c1c3c45,,,PDMS-water partitioning,PAH compilation,,literature range of log K,5.17 to 5.64 log units
C=C(CN(C(=O)c1c(C(F)F)nn(C)c1F)C1CC1)c1ccc(Cl)cc1Cl,,static acute toxicity test,zebrafish (Brachydanio rerio),"1.00 mg a.i./L, 6 h",,mortality,10%
Clc1cc(Cl)c(-c2ccc(Cl)c(Cl)c2Cl)cc1Cl,,,PDMS-water partitioning,PCB compilation,relative to: maximum over minimum K,literature range factor,2
N=C(N)NC(=O)Cc1c(Cl)cccc1Cl,Plasmodium falciparum,,D10,,,IC50,5.01 µM
CC[C@H](C)[C@H](NC(=O)[C@H](Cc1ccccc1)NC(=O)[C@H](CCC(=O)O)NC(=O)[C@H](CCCNC(=N)N)NC(=O)[C@H](C)NC(=O)[C@H](C)NC(=O)[C@H](CCC(N)=O)NC(=O)[C@H](CCC(=O)O)NC(=O)[C@H](CCC(=O)O)NC(=O)[C@H](CC(C)C)NC(=O)[C@H](Cc1ccc(O)cc1)NC(=O)[C@H](CO)NC(=O)[C@H](CO)NC(=O)[C@@H](NC(=O)[C@H](CC(=O)O)NC(=O)[C@H](CO)NC(=O)[C@@H](NC(=O)[C@H](Cc1ccccc1)NC(=O)[C@@H](NC(=O)CNC(=O)[C@H](CCC(=O)O)NC(=O)[C@H](C)NC(=O)CCc1cnc[nH]1)[C@@H](C)O)[C@@H](C)O)C(C)C)C(=O)N[C@@H](C)C(=O)N[C@@H](Cc1c[nH]c2ccccc12)C(=O)N[C@@H](CC(C)C)C(=O)N[C@H](C(=O)N[C@@H](CCCNC(=N)N)C(=O)NCC(=O)N[C@@H](CCCNC(=N)N)C(=O)N[C@@H](CCCCNC(=O)COCCOCCNC(=O)COCCOCCNC(=O)CC[C@H](NC(=O)CCCCCCCCCCCCCCCCC(=O)O)C(=O)O)C(=O)NCC(=O)NCC(=O)N[C@@H](CO)C(=O)N[C@@H](CCCCNC(=O)[C@H](CCCCNC(=O)[C@H](CCCCNc1c(NCCCCCN(O)C(=O)CCC(=O)NCCCCCN(O)C(=O)CCC(=O)NCCCCCN(O)C(C)=O)c(=O)c1=O)Nc1c(NCCCCCN(O)C(=O)CCC(=O)NCCCCCN(O)C(=O)CCC(=O)NCCCCCN(O)C(C)=O)c(=O)c1=O)NC(=O)[C@H](CCCCNc1c(NCCCCCN(O)C(=O)CCC(=O)NCCCCCN(O)C(=O)CCC(=O)NCCCCCN(O)C(C)=O)c(=O)c1=O)Nc1c(NCCCCCN(O)C(=O)CCC(=O)NCCCCCN(O)C(=O)CCC(=O)NCCCCCN(O)C(C)=O)c(=O)c1=O)C(=O)O)C(C)C [zirconium-89 labelled],,ex vivo gamma counting,"male Sprague-Dawley rats, heart","intravenous, 1 nmol, 24 h",,tissue uptake,0.347 %ID/g
